Experimental data from different studies.
Each line is one published result; not all experiments were run side by side. ± marks the error that the study gave.
Cell line: HCT-15

| Structure (SMILES) | read-out | technique | tested at | time | quantity | result |
| --- | --- | --- | --- | --- | --- | --- |
| Cc1cc(C)c(-n2ccn(-c3c(C)cc(C)cc3C)c2=[Se])c(C)c1.[Cl][Au] | cell growth or viability | MTT |  | 72 h | IC50 | 2.7 µM |
| Cc1cccc(O)c1C(=O)OCC1(O)C(Nc2ccc3c(c2)Cc2ccccc2-3)C(N)C(NC(=O)N(C)C)(C(C)O)C1(C)O (stereo not shown) | cell growth or viability | SRB |  |  | GI50 | 1.46 µM |
| [Cl][Ag].[Se]=c1n(C2CCCCC2)ccn1C1CCCCC1 | cell growth or viability | MTT |  | 72 h | IC50 | 8.3 µM |
| C1CCN(C2CCNCC2)CC1.CCCC(CCC)C(=O)[O][Pt]([OH])([Cl])[Cl].CCCCN | cell growth |  |  | 72 h | IC50 | 14.4 ± 2.05 µM |
| F[P-](F)(F)(F)(F)F.OCP(CO)CO.OCP(CO)CO.OCP(CO)CO.OCP(CO)CO.[Cu+] | cell growth or viability | MTT |  | 72 h | IC50 | 0.54 µM |
| CC(C)c1cccc(C(C)C)c1-n1c[n+](-c2c(C(C)C)cccc2C(C)C)c2c1-c1cccc3cccc-2c13.[Cl][Pd-]([Cl])[CH2]C=Cc1ccccc1 | cell growth or viability | MTT |  | 72 h | IC50 | 10.6 µM |
| CC1=CCC23OC2(C)CCC2C(C[N+](C)(C)C)C(=O)OC2C13.[I-] (stereo not shown) | cell growth or viability | SRB | 8.3 µM |  | inhibition | 59.3% |
| Cc1cc(C)c(N2CCN(c3c(C)cc(C)cc3C)C2=[Se])c(C)c1.[Cl][Au] | cell growth or viability | MTT |  | 72 h | IC50 | 3.2 µM |
| Cc1cc(C)c(-n2c[n+](-c3c(C)cc(C)cc3C)c3c2-c2cccc4cccc-3c24)c(C)c1.[Cl][Pd-]([Cl])[CH2]C=Cc1ccccc1 | cell growth or viability | MTT |  | 72 h | IC50 | 10.3 µM |
| CC/C=C\C/C=C\C/C=C\C/C=C\C/C=C\C/C=C\CCC(=O)Nc1ccn(C2OC(CO)C(O)C2(F)F)c(=O)n1 (stereo not shown) |  | NCI60 screen |  |  | CC50 | 87.5 µM |

Repeated from above:
| Structure (SMILES) | read-out | technique | tested at | time | quantity | result |
| --- | --- | --- | --- | --- | --- | --- |
| CC1=CCC23OC2(C)CCC2C(C[N+](C)(C)C)C(=O)OC2C13.[I-] (stereo not shown) | cell growth or viability | SRB | 8.3 µM |  | inhibition | 59.3% |
